Assay results from different studies.
Each line is one published result; not all experiments were run side by side. Values joined by “and” are separate records of one study, mostly repeats; a detail may differ. ± gives the spread as reported.
Chain of UniProt O88693 (whole entry, looked up): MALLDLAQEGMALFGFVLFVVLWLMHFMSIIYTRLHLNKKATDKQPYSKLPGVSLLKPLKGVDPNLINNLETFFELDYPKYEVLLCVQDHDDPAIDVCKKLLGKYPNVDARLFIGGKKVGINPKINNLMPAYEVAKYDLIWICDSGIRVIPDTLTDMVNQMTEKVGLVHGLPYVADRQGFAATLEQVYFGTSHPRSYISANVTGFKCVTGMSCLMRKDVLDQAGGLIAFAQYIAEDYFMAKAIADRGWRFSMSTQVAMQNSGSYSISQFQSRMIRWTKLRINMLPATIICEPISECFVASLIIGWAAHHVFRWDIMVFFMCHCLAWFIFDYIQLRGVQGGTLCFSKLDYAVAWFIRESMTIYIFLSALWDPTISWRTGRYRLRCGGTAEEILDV

Compound | target or system | assay | test system | setting | how to read | endpoint | result
Cc1ncsc1-c1ccc(C(C)NC(=O)C2CC(O)CN2C(=O)C(NC(=O)CCCCCCCCCCN2CCCC(Nc3ncc(Cl)c(Nc4ccccc4S(=O)(=O)C(C)C)n3)C2)C(C)(C)C)cc1 (stereo not drawn) | 22Rv1 | RNA-seq, item: RAP2B mRNA | – | concentration not given | reference: DMSO | log2 fold change | -1.38
CC(=O)N1C[C@H](O)C[C@H]1C(=O)N[C@H](C(=O)N[C@@H](CO)C(=O)N[C@@H](CC(=O)O)C(=O)COC(=O)c1c(C)cccc1C)C(C)(C)C | THP-1 cells, LPS-primed | pyroptosis, LDH release | – | 25 µM, LPS 1 µg/mL, 4 h, together with: nigericin 5 µM, 2 h | – | cell lysis | 82.7%
F[C@@H]1[C@H](c2ccc(-c3cncnc3)cc2)[C@H](F)[C@H](F)C[C@@H]1F | – | liver microsome stability | rat liver microsomes | 1 µM | – | hepatic clearance | 27 mL/min/kg
[BH3-][P+]1(c2ccccc2)CCCCC1 | HaCaT | annexin V/PI flow cytometry | – | IC50, 72 h | – | early apoptotic cells | 2.85%
COc1ccccc1-c1ccc(COCCCCCN2C[C@H](O)[C@@H](O)[C@H](O)[C@H]2CO)cc1 | Ceramide glucosyltransferase (Ugcg, Mus musculus, UniProt O88693) | enzyme activity, inhibitor, fluorescence | – | – | – | IC50 | 0.05 µM
O=C(CN1CCCCC1)Nc1ccc(C2CCCCC2)cc1 | – | – | mouse liver microsomes | 1 µM | – | hepatic clearance | 84 mL/min/kg
CCC(=CCc1c(O)cc2c(c1O)C(=O)CC(c1ccc(O)c(OC)c1)O2)CC (stereo not drawn) | HeLa | cell growth or viability, MTT | – | 3.125 µM, 48 h | – | inhibition | 12.8%
CNS(=O)(=O)Nc1nccc(Cc2c(C)c3ccc(Oc4ncccc4F)cc3oc2=O)c1F | NCI-H1650 | cell viability | – | 7 days | – | IC50 | > 1 µM
O=S(=O)(N[C@H]1CCO[C@@H](C2c3ccc(F)cc3CCc3cc(F)ccc32)C1)c1ccc(OC(F)(F)F)cc1 | D341 | CellTiter | – | concentration not given, 72 h | – | cell proliferation | decreased
N#C[C@@H]1CC(F)(F)CN1C(=O)CNC(=O)c1ccnc2ccc(OCCCN3CCN(C(=O)CCc4ccc5c(c4)CN4CCN(Cc6cc(CCC(=O)O)ccc6O)CC(=O)[O][Al-]([18F])([O]C(=O)C4)[O]5)CC3)cc12 (stereo partly drawn) | HT1080 cells expressing human FAP | – | – | 30 min, 37 °C | – | internalized fraction | 86.6 ± 1.7%
O=S(=O)(Nc1ccc(OC(F)(F)F)cc1)N1CCCC(C2c3ccccc3CCc3ccccc32)C1 (stereo not drawn) | D341 | Transwell | – | 1.5 µM, 24 h | – | cell migration | decreased
C[C@@H]1CC[C@@H]([C@@](O)(CNCc2ccccc2F)COCc2ccccc2)[C@H](OCc2ccccc2)C1 | A2780 | cell growth or viability, MTT | – | 30 µM, 72 h | – | inhibition | 99.4%
C[n+]1cc(/C=N/NC(=O)c2cccc(C(=O)N/N=C/c3cc4ccccc4[n+](C)c3)c2)cc2ccccc21 | 22CTA telomeric G4-DNA antiparallel | FRET melting | – | 1 µM, K10 buffer, DNA 0.2 µM | – | ΔTm | 8.1 ± 0.6 °C
C=CC(=O)N1CCCC(n2c(=O)c3ncccc3n(Cc3ccc(Oc4ccccc4)cc3)c2=O)C1 (stereo not drawn) | OCI-LY19 | annexin V/PI flow cytometry | – | 100 nM, 72 h, Q1 quadrant | – | annexin V/PI cells | 0.36%
C=CCc1c(O)cc2c(c1O)C(=O)CC(c1ccc(O)cc1)O2 (stereo not drawn) | MCF7 | cytotoxicity, MTT | – | 64.04 µM, 48 h | – | growth inhibition | 16.5%
O=C(N/N=C/c1ccc(C[n+]2ccccc2)cc1)N/N=C/c1ccc(C[n+]2ccccc2)cc1 | 22CTA telomeric G4-DNA antiparallel | FRET melting | – | 1 µM, K10 buffer, DNA 0.2 µM | – | ΔTm | 4.1 ± 0.3 °C
O=C([O-])CN1CCN(CC(=O)[O-])CCN(CC(=O)NCC2CCC(C(=O)NC(Cc3ccc4ccccc4c3)C(=O)NCCCCC(NC(=O)NC(CCC(=O)O)C(=O)O)C(=O)O)CC2)CCN(CC(=O)[O-])CC1.[68Ga+3] (stereo not drawn) | 22Rv1 | – | – | 2 h, efflux | reference: dose | cell retention | 0.5 ± 0.15%
CN(C)CCCS(=O)(=O)NC12CCCC(C)(CCC3C1CC3(C)C)C2 (stereo not drawn) | HT-29 | cell growth or viability, CCK-8 | – | 10 µM | – | inhibition | 78%
CN1CCCNC(=O)c2cccc(c2)C(=O)NCCCN(C)CCCNc2cccc3c2C(=O)c2cccc(c2C3=O)NCCC1 | SAS | RNA-Seq, item: VRK1 mRNA | – | 1 µM, 6 h | reference: untreated cells | log2 fold change | 0.464
O=C(CC(=O)Nc1ccc2c(/C=C/c3ccccn3)n[nH]c2c1)Nc1ccc(Cl)c(C(F)(F)F)c1 | BaF3 | cell growth or viability, CCK-8 | – | – | – | GI50 | 7.4 µM
CCN(C(=O)c1cc(F)ccc1Oc1nncnc1N1CCC2(C1)CN([C@H](CCCN(C)CCOC)C(C)C)C2)C(C)C | MG-63 | cell growth or viability | – | 7 days | – | GI50 | > 10 µM
CCCC[C@H](NC(C)=O)C(=O)N[C@@H](CCC(=O)O)C(=O)N[C@@H](CO)C(=O)N[C@@H](CC(=O)O)C(=O)COC(=O)c1c(C)cccc1C | THP-1 cells expressing FKBP-caspase-4 | pyroptosis, inhibitor | – | concentration not given, together with: B/B dimerizer | – | LDH release | 53% and 55.6% and 59.2%
CC(O)CNc1cc(=O)oc2ccccc12 (stereo not drawn) | COS-7 (untransfected) | – | – | 500 µM, unit not given | reference: 3 µM ionomycin | calcium mobilisation signal | 2.09 ± 0.62
Cn1ncc2cc(-c3cncc(Cl)c3N3CCC4(CCNC4=O)CC3)ccc21 | LS174T | gene expression, microarray, item: CXCL8 mRNA | – | concentration not given, 24 h | reference: untreated cells | log2 fold change | -26.3
